Measured values from different studies.
Each line is one published result; not all experiments were run side by side.
Sample: plasma

| SMILES | test system | setting | scale | quantity | result |
| --- | --- | --- | --- | --- | --- |
| [2H]C([2H])([2H])Oc1cc2c(cc1OC([2H])([2H])[2H])[C@H]1C[C@H](O)[C@H](CC(C)C(=O)O)CN1CC2 (stereo partly drawn) | healthy human male | oral, 25 mg, geometric mean |  | AUC(0-inf) metabolite share of plasma radioactivity | 9% |
| CC(C)(O)c1ncc([S@](N)(=O)=NC(=O)Nc2c3c(cc4c2CCC4)CCC3)s1 | healthy human fasted | oral, 100 mg single dose, spray-dried dispersion |  | AUC(0-inf) | 99400 ng·h/mL |
| CCc1c2c(nc3ccc(O)cc13)-c1cc3c(c(=O)n1C2)COC(=O)[C@]3(O)CC | human patients | intravenous, 24 mg/m^2 of parent drug |  | AUC(0-inf) | 168 ng·h/mL |
| NC(=O)/C=C/c1cccc(S(=O)(=O)Nc2ccccc2)c1 | human, normal liver function | intravenous, 400 mg/m^2 belinostat, cycle 1 day -7, geometric mean | relative to: metabolite over belinostat | AUC(0-inf) metabolic ratio | 0.901 |
| [2H]C([2H])([2H])Oc1cc2c(cc1OC([2H])([2H])[2H])[C@H]1CC(=O)[C@H](CC(C)(C)O)CN1CC2 | healthy human male | oral, 25 mg, geometric mean |  | AUC(0-inf) metabolite share of plasma radioactivity | 5.1% |
| O=C(O)/C=C/c1cccc(S(=O)(=O)Nc2ccccc2)c1 | human, severe liver dysfunction | intravenous, 400 mg/m^2 belinostat, cycle 1 day -7, geometric mean | relative to: metabolite over belinostat | AUC(0-inf) metabolic ratio | 0.611 |
| CCCCCCCCCCCCCCCC(=O)N[C@@H](CCC(=O)NCCCC[C@H](NC(=O)[C@H](C)NC(=O)[C@H](C)NC(=O)[C@H](CCC(N)=O)NC(=O)CNC(=O)[C@H](CCC(=O)O)NC(=O)[C@H](CC(C)C)NC(=O)[C@H](Cc1ccc(O)cc1)NC(=O)[C@H](CO)NC(=O)[C@H](CO)NC(=O)[C@@H](NC(=O)[C@H](CC(=O)O)NC(=O)[C@H](CO)NC(=O)[C@@H](NC(=O)[C@H](Cc1ccccc1)NC(=O)[C@@H](NC(=O)CNC(=O)[C@H](CCC(=O)O)NC(=O)[C@H](C)NC(=O)[C@@H](N)Cc1cnc[nH]1)[C@@H](C)O)[C@@H](C)O)C(C)C)C(=O)N[C@@H](CCC(=O)O)C(=O)N[C@@H](Cc1ccccc1)C(=O)N[C@H](C(=O)N[C@@H](C)C(=O)N[C@@H](Cc1c[nH]c2ccccc12)C(=O)N[C@@H](CC(C)C)C(=O)N[C@H](C(=O)N[C@@H](CCCNC(=N)N)C(=O)NCC(=O)N[C@@H](CCCNC(=N)N)C(=O)NCC(=O)O)C(C)C)[C@@H](C)CC)C(=O)O | healthy humans | concentration not given | relative to: compound over Victoza | AUC(0-inf) ratio | 111% |
| CONC(=O)/C=C/c1cccc(S(=O)(=O)Nc2ccccc2)c1 | human, severe liver dysfunction | intravenous, 400 mg/m^2 belinostat, cycle 1 day -7, geometric mean | relative to: metabolite over belinostat | AUC(0-inf) metabolic ratio | 0.759 |
| Cn1c(=O)oc2ccc(-c3ccc(CC(C#N)NC(=O)C4CNCCCO4)c(F)c3)cc21 (stereo not drawn) | human volunteers | 40 mg single dose, fasted, geometric mean |  | AUC(0-inf) | 3590 ng·h/mL |

Some of these lines once more:
| SMILES | test system | setting | scale | quantity | result |
| --- | --- | --- | --- | --- | --- |
| CC(C)(O)c1ncc([S@](N)(=O)=NC(=O)Nc2c3c(cc4c2CCC4)CCC3)s1 | healthy human fasted | oral, 100 mg single dose, spray-dried dispersion |  | AUC(0-inf) | 99400 ng·h/mL |
